Measured values from different studies.
± gives the spread as reported.

Sequences of proteins named here, by UniProt entry; tags and fusion partners are left off.
UniProt P41143, whole entry: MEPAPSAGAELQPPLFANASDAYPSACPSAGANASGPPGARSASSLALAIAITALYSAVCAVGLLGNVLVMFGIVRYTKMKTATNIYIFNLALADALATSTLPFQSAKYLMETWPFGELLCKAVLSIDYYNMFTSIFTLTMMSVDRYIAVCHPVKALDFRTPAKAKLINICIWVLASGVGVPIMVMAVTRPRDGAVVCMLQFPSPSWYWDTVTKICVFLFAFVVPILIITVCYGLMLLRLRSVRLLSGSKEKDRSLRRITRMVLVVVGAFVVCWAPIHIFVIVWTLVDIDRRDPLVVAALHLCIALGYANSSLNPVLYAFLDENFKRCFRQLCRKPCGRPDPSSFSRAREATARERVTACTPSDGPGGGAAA

O=C(O)c1ccc(-c2cccc(C(=O)O)c2)cc1
MIC fold reduction (Escherichia coli; bacterial growth, inhibitor, broth microdilution; expressing OXA-48; 256 µg/mL, added: ampicillin; reference: ampicillin alone): 16 fold

COc1ccc(CN[C@@H]2CO[C@H](C(c3ccccc3)c3ccccc3)C[C@H]2O)cc1
inhibition (Delta-type opioid receptor (OPRD1, Homo sapiens, UniProt P41143); radioligand binding; 10 µM, added: [3H]DADLE): 3.3%

O=C(O)CC1Sc2nnc(-c3cccs3)n2N=C1c1ccc(Cl)cc1 (centres unmarked)
Ki (UGM of Caenorhabditis elegans; enzyme activity, inhibitor): 25 ± 8 µM

Cc1c(C(=O)NN2CCCCC2)nn(-c2ccc(Cl)cc2Cl)c1-c1ccc(CCCCCBr)cc1
rectal temperature change (mice; i.v., 10 mg/kg): inactive

CO[C@H]1[C@H](O[C@H]([C@H]2O[C@@H](n3ccc(=O)[nH]c3=O)[C@H](O)[C@@H]2O)[C@H](NCCCNC(=O)[C@@H](NC(=O)[C@@H](NC(=O)N[C@H](C(=O)O)C(C)C)[C@@H]2CCNC(=N)N2)[C@@H](OC(=O)CCCCCCCCCCCCNC(=N)N)C(C)C)C(N)=O)O[C@H](CN)[C@H]1O
MIC50 (Saccharomyces cerevisiae; alamar blue; BY4742): > 35 µg/mL

CC(C)C[C@@H]1NC(=O)[C@H](CCC(=O)O)NC(=O)[C@@H]2CSSC[C@@H]3NC(=O)[C@H](C)NC(=O)[C@@H]4CCCN4C(=O)[C@H](CC(N)=O)NC(=O)[C@H](CSSC[C@H](NC(=O)[C@H](Cc4ccc(O)cc4)NC(=O)[C@H](CC(N)=O)NC(=O)[C@H](CO)NC(=O)[C@H](CO)NC(=O)CN4CCN(CC(=O)O)CCN(CC(=O)O)CC4)C(=O)N2)NC(=O)[C@H](CSSC[C@@H](C(=O)N[C@@H](Cc2ccccc2)C(=O)O)NC(=O)CNC(=O)[C@H]([C@@H](C)O)NC3=O)NC1=O [copper-64 labelled]
internalized radioactivity (T84; concentration not given, 100 min, pH 5.5, 37 °C, 64Cu-labelled compound; reference: cell-associated): 43.6 ± 3.6%

O=C(NC1CCN(c2ncnc3[nH]cnc23)CC1)c1cccc(NS(=O)(=O)c2ccc([N+](=O)[O-])cc2)c1
viability (A549-ACE2; 0.03048 µM): 107%

[11CH3]Nc1ccc(C(=O)C2CCN(C3Cc4ccccc4CC3O)CC2)cc1 (single isomer, unassigned)
uptake (Sprague-Dawley rat, kidney; 30 min, added: cyclosporin A 25 mg/kg pretreatment): 1.21 %ID/g

C[C@@H](NC(=O)[C@@H](N)Cc1ccc(O)cc1)C(=O)NCC(=O)N[C@@H](Cc1ccccc1)C(N)=O
IC50 (muscle contraction, inhibitor; guinea pig ileum; electrically stimulated): 0.04 ± 0.013 µM

C[C@@H](O)[C@@H]1NC(=O)[C@@H]2CSCSC[C@@H](C(=O)N[C@H](CC(=O)N[C@@H](CCCNC(=N)N)C(=O)O)Cc3ccc(O)cc3)NC(=O)[C@H](CCC(N)=O)NC(=O)[C@H](Cc3ccc(O)c(I)c3)NC(=O)[C@H](CCCNC(=N)N)NC(=O)[C@H](CSSC[C@H](NC(=O)CN)C(=O)N2)NC(=O)[C@H](CCCNC(=N)N)NC(=O)[C@@H]2CCCN2C(=O)[C@H](CC(=O)O)NC1=O
inhibition (pain-related receptors and channels; radioligand binding; 10 µM): < 50%

CC1CCCCCCCCCCCCC(=O)C1 (centres unmarked)
binding affinity (Manis javanica OBP3 Y117F; concentration not given; reference: wild type): decreased

CC(C)C[C@@H](NC(=O)[C@H](NC(=O)[C@H]1CCCN1)[C@H](C)O)C(=O)N[C@H](Cc1c[nH]cn1)C(=O)N[C@@H](C(=O)N[C@H](Cc1c[nH]cn1)C(=O)N[C@H](CC(N)=O)C(=O)N[C@H](CCCNC(=N)N)C(=O)N[C@H](CCCNC(=N)N)C(=O)N[C@H](CCCNC(=N)N)C(=O)N[C@H](CCCNC(=N)N)C(=O)N[C@H](CCCNC(=N)N)C(N)=O)[C@H](C)O
incidence of adverse events (phase I single ascending dose; healthy male subjects; 4 mg, total events): 16.7%

COCCCn1nc(-c2ccc(CC(=O)Nc3cccc(F)c3)cc2)c2c(N)ncnc21
EC50 (KM12; cell viability): 4.38 ± 0.3 µM

O=S(=O)(O)c1ccc2cc(S(=O)(=O)O)ccc2c1
MIC of ampicillin (Escherichia coli; bacterial growth, broth microdilution; expressing OXA-48; 128 µg/mL, added: ampicillin; MIC of ampicillin): 64 µg/mL

NC[C@@H](NC[C@@H]1CCCN1C[C@@H](CO)NC[C@@H](NCCc1ccc(-c2ccccc2)cc1)c1ccccc1)c1ccccc1
potentiation of amikacin (Klebsiella pneumoniae; bacterial growth; 16 µM, fold shift of IC50, added: amikacin): 1.6 fold

Nc1cc(S(=O)(=O)O)cc2cc(S(=O)(=O)O)cc(O)c12
MIC of ampicillin (Escherichia coli; bacterial growth, broth microdilution; expressing OXA-48; 4 µg/mL, added: ampicillin; MIC of ampicillin): 512 µg/mL

NC[C@@H](NC[C@@H]1CCCN1C[C@@H](CO)NC[C@@H](NCCC1CC2CCC1C2)c1ccccc1)c1ccccc1 (some centres unmarked)
IC50 (Acinetobacter baumannii; bacterial growth; compound alone): > 24 µM

Cc1ccc(-c2csc(NP(=O)(O)OCC3OC(n4cnc5c(=O)[nH]c(NC(=O)c6ccccc6)nc54)C4OC(C)(C)OC34)n2)cc1 (centres unmarked)
IC50 (HepG2; cell growth, SRB): > 100 µM

CCCCCCCCCCCCNC(=O)N[C@H](C(=O)N[C@H]1/C=C/CCNC(=O)/C=C/[C@H](C)NC1=O)C(C)C
resistance index (U-266 bortezomib-resistant; cell viability; reference: EC50 resistant over parental U-266): 2.2 ± 0.4

Cc1ccc(-c2csc(NP(=O)(O)OCC3OC(n4c[n+](Cc5ccccc5)c5c(=O)[nH]c(NC(=O)c6ccccc6)nc54)C4OC(C)(C)OC34)n2)cc1 (centres unmarked)
IC50 (Vero; cell growth, SRB): > 100 µM

CN1CC[C@]23c4c5ccc(O)c4O[C@H]2c2ncc(-c4ccc(Cl)cc4)cc2C[C@@]3(OCCCc2ccccc2)[C@H]1C5
A50 (tail flick; CD-1 mouse; sc): 0.95 mg/kg

Cc1ccccc1S(=O)(=O)Nc1cccc(C(=O)NC2CCN(c3ncnc4[nH]cnc34)CC2)c1
viability (A549-ACE2; 7.407 µM): 100%

C[C@H](CS)C(=O)N[C@@H](Cc1c[nH]c2ccccc12)C(=O)O
MIC of meropenem (Enterobacter aerogenes; VIM-1 producing; 10 µM, added: meropenem): 16 µg/mL

NC[C@@H](NC[C@@H]1CCCN1C[C@@H](CO)NC[C@@H](NCCc1ccc(Cl)c(Cl)c1)c1ccccc1)c1ccccc1
potentiation of amikacin (Klebsiella pneumoniae; bacterial growth; 16 µM, fold shift of IC50, added: amikacin): 1.1 fold

CC1(C)OC2C(COP(=O)(O)Nc3nccs3)OC(n3cnc4c(=O)[nH]c(NC(=O)c5ccccc5)nc43)C2O1 (centres unmarked)
IC50 (HepG2; cell growth, SRB): 59.7 ± 4.58 µM

Nc1ccc2ccc(CCNCCCc3cccc(F)c3)cc2n1
Ki (Bacillus subtilis NOS bi-domain; enzyme activity, inhibitor): 0.269 µM

CC(C)C(C(=O)N(Cc1ccc(C2CCCCC2)cc1)c1ccc(C(=O)O)cc1)N(C)S(=O)(=O)c1c(F)c(F)c(F)c(F)c1F (centres unmarked)
inhibition (cancer-associated fibroblasts; gene expression, item: survivin; concentration not given): > 60%

CC(CCN[C@H](CN[C@H](CO)CN1CCC[C@H]1CN[C@H](CN)c1ccccc1)c1ccccc1)c1ccccc1 (some centres unmarked)
potentiation of amikacin (Acinetobacter baumannii; bacterial growth; 16 µM, fold shift of IC50, added: amikacin): 2.1 fold

CO[C@H]1[C@H](O[C@H]([C@H]2O[C@@H](n3ccc(=O)[nH]c3=O)[C@H](O)[C@@H]2O)[C@H](NCCCNC(=O)[C@@H](NC(=O)[C@@H](NC(=O)N[C@H](C(=O)O)C(C)C)[C@@H]2CCNC(=N)N2)[C@@H](OC(=O)CCCCCCCCCCCCN(O)C(=N)N)C(C)C)C(N)=O)O[C@H](CN)[C@H]1O
MIC90 (Bacillus cereus; alamar blue; NRRL B-568): > 35 µg/mL

C=CC(=O)Nc1cc(-n2c(=O)ccc3cnc4ccc(-c5cn[nH]c5)cc4c32)ccc1C
GI50 (Ramos; cell growth; 72 h): 0.49 µM

Cc1cc(=O)oc2cc(OCCCCn3cc(COc4ccc(N5C(N)=NC(N)=NC56CCCCC6)cc4)nn3)ccc12
MIC50 (Mycobacterium bovis; BCG Tac^r10.1, thyA H147Y missense; TA-C-resistant thyA mutant): 3.2 µM

COc1ccc2c(c1)c(CC(=O)NCCCCNC(=O)CCC(=O)OC1c3cc4c(cc3C(c3cc(OC)c(OC)c(OC)c3)C3C(=O)OCC13)OCO4)c(C)n2C(=O)c1ccc(Cl)cc1 (centres unmarked)
reduction in cell number (1483 HNSCC cells; 10 µM, 72 h, 5 h exposure then washout; reference: vehicle): ~80%

Cc1ncsc1-c1ccc([C@H](C)NC(=O)[C@@H]2C[C@@H](O)CN2C(=O)[C@@H](NC(=O)COCCOCCOCCOCCNC(=O)c2ccc(CN3CCN(S(=O)(=O)c4ccc(NC(=S)NCc5cccnc5)cc4)CC3)cc2)C(C)(C)C)cc1
NAD+ level (CT26; intracellular; concentration not given): decreased

O=S(=O)(O)c1ccc2c(c1)Cc1cc(S(=O)(=O)O)ccc1-2
MIC of ampicillin (Escherichia coli; bacterial growth, broth microdilution; expressing OXA-48; 4 µg/mL, added: ampicillin; MIC of ampicillin): 256 µg/mL

O=S(=O)(N[C@H]1CCC[C@@H](N2c3ccccc3CCc3ccccc32)[C@@H]1O)c1ccc(OC(F)(F)F)cc1
median survival (mice, intracranial E98 glioblastoma xenograft; oral, 100 mg/kg twice daily): 26 days

NC[C@@H](NC[C@@H]1CCCN1C[C@@H](CO)NC[C@@H](NCCC12CC3CC(CC(C3)C1)C2)c1ccccc1)c1ccccc1
potentiation of amikacin (Klebsiella pneumoniae; bacterial growth; 24 µM, fold shift of IC50, added: amikacin): 3.2 fold

NCCNCCSc1ccccc1
pKa (spectrophotometry; pH 6.4): 6.25

O=S(=O)(O)c1ccc(-c2ccc(S(=O)(=O)O)cc2)cc1
MIC of ampicillin (Escherichia coli; bacterial growth, broth microdilution; expressing OXA-48; 8 µg/mL, added: ampicillin; MIC of ampicillin): 512 µg/mL

Repeated from above:
NC[C@@H](NC[C@@H]1CCCN1C[C@@H](CO)NC[C@@H](NCCc1ccc(-c2ccccc2)cc1)c1ccccc1)c1ccccc1
potentiation of amikacin (Klebsiella pneumoniae; bacterial growth; 16 µM, fold shift of IC50, added: amikacin): 1.6 fold

Nc1cc(S(=O)(=O)O)cc2cc(S(=O)(=O)O)cc(O)c12
MIC of ampicillin (Escherichia coli; bacterial growth, broth microdilution; expressing OXA-48; 4 µg/mL, added: ampicillin; MIC of ampicillin): 512 µg/mL
